Experimental data gathered from unrelated publications.
Chain of UniProt P37136 (whole entry, looked up): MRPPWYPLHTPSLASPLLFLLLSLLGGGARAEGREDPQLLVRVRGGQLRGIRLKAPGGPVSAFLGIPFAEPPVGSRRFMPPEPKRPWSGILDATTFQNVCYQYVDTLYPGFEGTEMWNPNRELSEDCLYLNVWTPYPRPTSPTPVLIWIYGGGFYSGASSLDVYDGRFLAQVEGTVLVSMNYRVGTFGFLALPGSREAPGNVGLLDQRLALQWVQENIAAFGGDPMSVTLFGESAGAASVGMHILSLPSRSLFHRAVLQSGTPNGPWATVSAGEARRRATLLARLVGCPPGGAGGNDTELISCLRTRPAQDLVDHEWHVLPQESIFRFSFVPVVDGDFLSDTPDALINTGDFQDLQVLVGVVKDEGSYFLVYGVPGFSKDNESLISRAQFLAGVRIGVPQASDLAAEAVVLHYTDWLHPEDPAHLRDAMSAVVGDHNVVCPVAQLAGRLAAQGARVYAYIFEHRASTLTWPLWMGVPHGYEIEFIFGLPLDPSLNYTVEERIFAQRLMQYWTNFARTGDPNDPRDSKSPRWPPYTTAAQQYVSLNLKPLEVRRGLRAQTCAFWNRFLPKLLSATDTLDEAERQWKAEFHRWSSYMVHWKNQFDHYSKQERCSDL

Substance = maraviroc; system = black CYP3A5 extensive metabolizers, plasma; conditions = 300 mg twice daily; endpoint = Cavg; value = 182 ng/mL
Substance = deucravacitinib; system = human; conditions = oral, 20 mg, single dose; endpoint = apparent half-life; value = 14.9 h
Substance = vorinostat glucuronide; system = patients, plasma; conditions = oral, 100 mg vorinostat three times daily, 14 days, with: idarubicin; endpoint = Cmax; value = 2160 nM
Substance = phoxim-oxon; tested on = Acetylcholinesterase (Ache, Rattus norvegicus, UniProt P37136); test = inhibitor; system = rat, postnatal day 70, rat brain homogenate; conditions = 15 min, 37 °C; endpoint = IC50; value = 0.043 µM
Substance = chicoric acid; tested on = IPEC-J2 monolayer; conditions = with: vinblastine 30 µM; scale = baseline: without inhibitor; endpoint = Papp basolateral to apical; value = decreased
Substance = semaglutide; test = refers to: leading to treatment discontinuation; system = human, safety analysis set; conditions = concentration not given, 32 weeks, run-in; endpoint = participants with adverse events; value = 4.2%
